Measured values gathered from unrelated publications.
± gives the spread as reported.
KDR: Vascular endothelial growth factor receptor 2 (KDR, Homo sapiens, UniProt P35968)
MET: Hepatocyte growth factor receptor (MET, Homo sapiens, UniProt P08581)
PDGFRB: Platelet-derived growth factor receptor beta (PDGFRB, Homo sapiens, UniProt P09619)
CTSL: Procathepsin L (CTSL, Homo sapiens, UniProt P07711)

SMILES	target	assay	test system	conditions	IC50 [nM]
O=c1[nH]c(=S)[nH]c2c1C(c1cc(/N=N/c3ccc(F)c(Cl)c3)ccc1O)c1c([nH]c(=S)[nH]c1=O)N2	PTGS2 (Ovis aries, UniProt P79208)	enzyme activity, inhibitor, ELISA	–	–	3870
CCn1c(-c2nc3ccc(C(=O)N4CCCC(N)C4)cc3n2C)cc2ccccc21 (centres unmarked)	PADI4 (Homo sapiens, UniProt Q9UM07)	binding, fluorescence polarisation	–	added: 10 nM tracer displacement, 0 mM Ca2+	> 100000
Cc1ccc2oc(-c3c4c(N)n[nH]c(=O)c4nn3-c3ccc(NC(=O)/C=C/CN(C)C)cc3)c(C)c2c1	MAPK1 (Homo sapiens, UniProt P28482)	enzyme activity, inhibitor, FRET	–	–	> 1000
CCOC(=O)N1CCC(Oc2nc3c(c(=O)n(C)c(=O)n3C)n2Cc2cccc(C)c2)CC1	HSD17B4 (Homo sapiens, UniProt P51659)	–	–	–	> 57000
COc1cc2nccc(Oc3ccc(NC(=S)Nc4ccccc4F)c(Cl)c3)c2cc1C(N)=O	KDR	–	–	–	139
COc1cnc(COc2ccc(F)c(F)c2)cc1-c1cc2c([nH]1)CCNC2=O	CSNK1G2 (Homo sapiens, UniProt P78368)	target engagement in cells, BRET	–	–	10
O=C(O)C(CO)NCc1cc(Cl)c(OCc2cccc(-c3ccccc3)c2Br)cc1OCc1cccnc1 (centres unmarked)	PD1-PDL2 (Homo sapiens, UniProt Q15116+Q9BQ51)	PD-1/PD-L1 interaction, inhibitor, ELISA	–	–	> 10000
COc1cc2ncnc(Oc3ccc(Nc4nccc5[nH]cc(-c6ccccc6)c(=O)c45)cc3F)c2cc1OC	MET	kinase activity, inhibitor, HTRF	–	–	69.7
COc1cc2nccc(Oc3ccc(NC(=S)NCC(C)(C)O)c(Cl)c3)c2cc1C(N)=O	PDGFRB	–	–	–	697
O=C(O)/C=C/C(=O)NNC(=O)c1cnc2ccccc2c1	Egl nine homolog 1 (EGLN1, Homo sapiens, UniProt Q9GZT9)	inhibitor, AlphaScreen	–	bimodal curve, rough estimate, added: 2 µM 2-oxoglutarate	> 300000
CCOc1cncc(-c2ccc(NC(=O)C(CC)c3ccnc(NS(=O)(=O)C4CC4)n3)nc2)n1 (centres unmarked)	CTP synthase 2 (Canis lupus familiaris, UniProt A0A8I3QAX6)	enzyme activity, RapidFire mass spectrometry	dog	geometric mean	4140
COc1cc2nccc(Oc3ccc(NC(=S)N[C@H](C)CO)c(Cl)c3)c2cc1C(N)=O	KDR	–	–	–	55.1
O=S(=O)(c1ccccc1)n1cnc2ncncc21	PARP2 (Homo sapiens, UniProt Q9UGN5)	enzyme activity, inhibitor	–	–	274
COc1cc2nccc(Oc3ccc(NC(=S)N4CCCC4)c(Cl)c3)c2cc1C(N)=O	PDGFRB	–	–	–	868
CC1CC(=O)N(C2CCOCC2)N=C1c1ccc(NC(=O)N2Cc3ccncc3C2)cc1 (centres unmarked)	NAMPT (Homo sapiens, UniProt P43490)	enzyme activity, inhibitor	–	–	2.7
C1=[N+]2CCCC[N+]3=Cc4ccc5[n]4[Au-]23[n]2c1ccc2-c1nc2ccccc2nc1-5.F[P-](F)(F)(F)(F)F	DNA topoisomerase 1 (TOP1, Homo sapiens, UniProt P11387)	enzyme activity, inhibitor	–	–	9200
O=C(N1CCCC1)n1cc(-c2ccc(-c3ccccc3)cc2)nn1	Platelet-activating factor acetylhydrolase 2, cytoplasmic (Mus musculus, UniProt Q8VDG7)	enzyme activity in cells, inhibitor	–	–	0.14 to 0.17
O=C(O)c1ccc(Cn2sc3ccccc3c2=O)cc1	HDAC10 (Homo sapiens, UniProt Q969S8)	enzyme activity, inhibitor	–	–	> 10000

SMILES	target	assay	test system	conditions	IC50 [nM]
CC(=O)NCCc1ccc(O)c(O)c1	Carbamate kinase (Giardia intestinalis, UniProt A8BB85)	enzyme activity, ATP luminescence	–	–	13000
CC(C)CCN(Cc1ccc(Cl)cc1)c1nc(C#N)nc(N2CCOCC2)n1	CTSL	enzyme activity, inhibitor, fluorescence	–	–	6
CCCCCCCCCCCCCC(=S)NCCCC[C@H](NC(=O)CNC(=O)CN)C(=O)NCC(=O)O	SIRT6 (Homo sapiens, UniProt Q8N6T7)	–	–	–	> 50000
CC(C)CCN(Cc1cccc(C(F)(F)F)c1)c1nc(C#N)nc(N2CCOCC2)n1	CTSL	enzyme activity, inhibitor, fluorescence	–	–	3
Cc1cccc(C2CC(=O)N2S(=O)(=O)c2cccc(Cl)c2)c1 (centres unmarked)	Rhomboid protease AarA (Providencia stuartii, UniProt P46116)	enzyme activity, inhibitor, fluorescence	–	–	< 20000
COc1ccc(CCNc2ncnc3sccc23)cc1OC	NR2F2 (Homo sapiens, UniProt P24468)	reporter gene, inhibitor	293T transfected with NR2F2	18 h	2800
O=C(Nc1cccc(-c2nc3ncccc3o2)c1)c1cccc(F)c1	Nucleoside transporter 1 (Plasmodium vivax, UniProt A5K8B0)	yeast growth	purine auxotrophic yeast expressing target	15 to 17 h, added: adenosine 1 mM	396 ± 50
O=c1ccc2ccc(O[C@@H]3O[C@H](CO)[C@@H](O)[C@H](O)[C@H]3O)c(O[C@@H]3O[C@H](CO)[C@@H](O)[C@H](O)[C@H]3O)c2o1	MAL12 (Saccharomyces cerevisiae S288c, UniProt P53341)	enzyme activity, inhibitor, absorbance	–	–	> 100000
CC(C)=CCN=C(N)NCCC[C@@H](NC(=O)CCCc1ccc(O)cc1)C(=O)N[C@@H](Cc1ccccc1)C(O)CC(=O)N[C@@H](Cc1ccc(O)cc1)C(=O)O (stereo in doubt)	MMP2 (Homo sapiens, UniProt P08253)	enzyme activity, inhibitor	–	–	37000
CN(C(=O)c1ccn2ncc(-c3ccc(C(N)=O)cc3)c2c1)c1ccc(C#N)cn1	MET	enzyme activity, inhibitor	–	–	> 10000
CC(/C=C/C(=O)NO)=C\[C@@H](C)C(=O)c1ccc(N(C)C)cc1	PTPN11 (Homo sapiens, UniProt Q06124, D61V)	enzyme activity, inhibitor, fluorescence	–	–	> 50000
NC1CCC(Nc2nccc(-c3cccnc3Oc3cc(Cl)c(NS(=O)(=O)c4ccccc4Cl)cc3F)n2)CC1 (centres unmarked)	Serine/threonine-protein kinase/endoribonuclease IRE1, RNase domain (ERN1, Homo sapiens, UniProt O75460)	RNase activity, inhibitor	–	added: XBP1 mini-substrate	390 ± 270
NC(c1ccccc1)(c1ccccc1)c1ccccc1Cl	KCNN4 (Homo sapiens, UniProt O15554)	ion current, inhibitor, patch clamp	–	–	1000
COc1ccccc1C1Sc2ccccc2NC2=C1C(=O)c1ccccc12 (racemic)	Type II NADH dehydrogenase (Plasmodium falciparum, UniProt Q8I302)	enzyme activity, inhibitor, fluorescence NAD+ quantitation	recombinant enzyme	–	> 20000
O=C(CCCCCCNC(=O)c1cc(C(=O)c2ccccc2)cn1Cc1ccc(F)cc1)NO	HDAC5 (Homo sapiens, UniProt Q9UQL6)	enzyme activity, inhibitor	–	–	> 50000
CCOCCCOc1cc2nccc(Oc3ccc(NC(=S)NC4CC4)c(Cl)c3)c2cc1C(N)=O	KDR	–	–	–	26.7
C#CCOc1cccc(Oc2nc3c(c(=O)n(CCCO)c(=O)n3C)n2Cc2ccc(C3(C(F)(F)F)N=N3)cc2)c1	TRPC4 (Homo sapiens, UniProt Q9UBN4)	calcium signal, inhibitor, fluorescence	–	–	17

For quick reference, copied from above:
SMILES	target	assay	test system	conditions	IC50 [nM]
O=c1[nH]c(=S)[nH]c2c1C(c1cc(/N=N/c3ccc(F)c(Cl)c3)ccc1O)c1c([nH]c(=S)[nH]c1=O)N2	PTGS2 (Ovis aries, UniProt P79208)	enzyme activity, inhibitor, ELISA	–	–	3870
CCn1c(-c2nc3ccc(C(=O)N4CCCC(N)C4)cc3n2C)cc2ccccc21 (centres unmarked)	PADI4 (Homo sapiens, UniProt Q9UM07)	binding, fluorescence polarisation	–	added: 10 nM tracer displacement, 0 mM Ca2+	> 100000
Cc1ccc2oc(-c3c4c(N)n[nH]c(=O)c4nn3-c3ccc(NC(=O)/C=C/CN(C)C)cc3)c(C)c2c1	MAPK1 (Homo sapiens, UniProt P28482)	enzyme activity, inhibitor, FRET	–	–	> 1000
CCOC(=O)N1CCC(Oc2nc3c(c(=O)n(C)c(=O)n3C)n2Cc2cccc(C)c2)CC1	HSD17B4 (Homo sapiens, UniProt P51659)	–	–	–	> 57000
